Results of several laboratories.
Numbered parts are unrelated; each lists some results of a single study. Positions count from the first letter of the parent shown.

Series 1
Target: RNA binding protein fox-1 homolog 2, RRM domain, GST-SBP tag (RBFOX2, Homo sapiens, UniProt O43251-10, residues 100-194)
Technique: RNA Bind-n-Seq
Form: RNA
Matrix: in vitro
Tested at: 365 nM
Setting: natural RNA segment, single round, ends assumed
Reference: no-protein control
Reading: higher = stronger binding
Constant ends, left off below: GGGAGUUCUACAGUCCGACGAUC … UGGAAUUCUCGGGUGCCAA
Target sequence (chain): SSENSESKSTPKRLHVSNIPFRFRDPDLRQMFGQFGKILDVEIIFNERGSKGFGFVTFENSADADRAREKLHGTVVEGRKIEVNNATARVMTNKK
`UUUUUUGGUGUUUUAAUGGGCCCAGAACUGUGGUUUAAAUUUUUAUGUAUGUAUUUUCUUUUUUGUGGAGUAUAAAUUUAAAAACUGGAUUUGGGACCUAAAAUACUCCU` — result for “RBNS enrichment (R)”: 1.82.
For `UGAGACUGGCUGAAGUGAAGAAUCUUUGACUGACCAUGUUGUGAUGUGUCGACAGACUCAAGGACACAACCACCUCGACCUGGUCAUGUGGCAUGCCUGUGUAUGUGUGU`, “RBNS enrichment (R)” read 2.91.
`UCCACCUUACAAGCAAGGAAAGGAAUAUUGACCUUCAAACUCAUUCAGUGUUGGAGCUCUCUAUGAGGCCUUCUAUCCUUUGGCCCAUGCCUUGGAUGGAGACAGACACU`: “RBNS enrichment (R)” 0.266.
Under “RBNS enrichment (R)”, `UUGGGGCUGUGCUUAAGAAUUUAAGCUCUGUUUUAAAGCCGAAGAAGAAAACAUUUGAAUUUACCUUCAUAUGCCACUAAGAACAAAAGCUCUGAAGUUCUUCCUGCUGG` is recorded as 0.282.
`CAUCACUAGACUCAGCAACCCUUCUCACCUUAACUGCCACCUUCCCUACACUCUCAGUUUACAGAGGCCACUGGGCCUCUGGCUGCAGAAUACAAAGUCCCGGGCUGUUA`: “RBNS enrichment (R)” 0.599.
Under “RBNS enrichment (R)”, `AUCUGGCCCAAAUGAAGCAUACCCUGUCACGCCCUUGGGAAAACAAAUAGGACCGAACAAAGCUACAUGAACACACCUGCUGUAGAGUUGAGGGGACCUCUCACCUGGUC` is recorded as 0.662.
`UAGAACACAGUAUACCUAUAGUAUACCUAUGUGUUUAUUAUGUUUGUAAAUGGUAACUGACAUUUAAUUAUUAGAAGUACUUACCCCUGCCUUCCUCCAUUUUUAUUCAU`: “RBNS enrichment (R)” 0.457.
`UUAUGAGAGCCCGUAGUUACAGUGUCCUCUAAUUUGAAAUCCAUAAGUUAACAAGUCUAUAUCAGGUGCAGCUGGCUUUGAUUAAAGGCCAUUUUUAAAACUUAAAAACU`: “RBNS enrichment (R)” 0.568.

Series 2
Target: Prothrombin, mature alpha-thrombin (F2, Homo sapiens, UniProt P00734)
Technique: aptamer microarray, sandwich
Form: DNA with 2'F-ANA
Matrix: in vitro
Tested at: 200 nM
Setting: whole 15-mer aptamer, many near background
Added: Cy3 exosite-II aptamer, 400 nM
Reading: higher = stronger binding
Strand: GGTTGGTGTGGTTGG
Under “mean fluorescence intensity”, `2'F-ANA at 2 3 5 6 7 8 9 11` is recorded as 91.5 a.u.
`2'F-ANA at 1 5 7 9 11 13 15` — result for “mean fluorescence intensity”: 49.5 a.u.
Under “mean fluorescence intensity”, `2'F-ANA at 1 2 4 5 6 7 12 14 15` is recorded as 48.3 a.u.
`2'F-ANA at 1 2 3 6 8 9 10 11 12 13 14`: “mean fluorescence intensity” 59.9 a.u.
`2'F-ANA at 1 3 4 5 6 8 10 14 15`: “mean fluorescence intensity” 77.6 a.u.
Under “mean fluorescence intensity”, `2'F-ANA at 1 2 3 4 5 7 8 10 13` is recorded as 45.1 a.u.
`2'F-ANA at 1 3 5 6 12 14` — result for “mean fluorescence intensity”: 45.4 a.u.
Under “mean fluorescence intensity”, `2'F-ANA at 1 2 3 8 10 11 13 14` is recorded as 50.7 a.u.
`2'F-ANA at 2 3 4 5 7 10 11 12 13` — result for “mean fluorescence intensity”: 52.1 a.u.
`2'F-ANA at 1 2 4 8 10 12 14 15` — result for “mean fluorescence intensity”: 51.5 a.u.
For `2'F-ANA at 5 8 9 10 11 12 14 15`, “mean fluorescence intensity” read 86.9 a.u.
Under “mean fluorescence intensity”, `2'F-ANA at 2 6 8 11 12 13` is recorded as 525 a.u.
For `2'F-ANA at 7 9 10 11 13`, “mean fluorescence intensity” read 150 a.u.

Series 3
Target: CCNF, cyclin fold, Cln2 fusion (human)
Technique: yeast growth competition, sequencing
Matrix: yeast
Setting: strong parent motif
Reference: not given
Reading: higher = stronger binding
Starting sequence: E2F1 docking peptide (human); PPVKRRLDLETDH
`E10T` — result for “normalised enrichment score”: 5.96.
For `K4E`, “normalised enrichment score” read 1.61.
`V3W` — result for “normalised enrichment score”: 2.87.
`R5S` — result for “normalised enrichment score”: 0.213.
`V3D` — result for “normalised enrichment score”: 0.607.
Under “normalised enrichment score”, `E10P` is recorded as 4.13.
For `D8N`, “normalised enrichment score” read 8.62.

Other studies, line by line
With `PhoQ, residues 284 288 289 292 302 303 SLSLLA` the fold induction was 8.42 (PhoP, residues 12 14 15 18 19 AQALL (Escherichia coli, UniProt P23836); Sort-seq, measured: YFP reporter; E. coli; PhoQ-PhoP variant library, added: 10 µM Mg2+; reference: high Mg2+ state, higher = stronger signaling).

Excerpt of the above (series 3):
Under “normalised enrichment score”, `E10P` is recorded as 4.13.
`E10T` — result for “normalised enrichment score”: 5.96.
`R5S` — result for “normalised enrichment score”: 0.213.
